Results pooled from the literature.
Every numbered part comes from another study and shows a few of its results, in no order. Changes are numbered by the printed parent chain.

Study 1 — method: protein binding microarray; form: double-stranded DNA, one strand shown; sample: in vitro; concentration: not given; baseline: not given; direction: higher = stronger binding
Target: Histone acetyltransferase KAT6A, both winged helices, GST fusion (KAT6A, Homo sapiens, UniProt Q92794, residues 1-181)
Notes: 8-mer, flanks averaged, mean of 2 arrays, mostly near background
Residues (chain): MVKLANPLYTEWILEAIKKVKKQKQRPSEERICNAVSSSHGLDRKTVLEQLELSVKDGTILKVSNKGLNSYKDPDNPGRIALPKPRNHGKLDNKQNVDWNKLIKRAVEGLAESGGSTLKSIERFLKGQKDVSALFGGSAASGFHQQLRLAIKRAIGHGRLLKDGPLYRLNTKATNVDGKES
Oligonucleotide	E-score
AGTGAAAA	-0.0424
ACGAGTGC	-0.063
GAGCGCGC	0.392
GGTACTTA	-0.0494
GGACTTAA	-0.0841
AGGTGAGC	-0.0621
ATACGGAC	0.207
CAGCTTGG	-0.289
ATCCTGGA	-0.246
AAGGTACC	-0.0698
AATGTAAC	-0.0824
ATTCGGGC	0.0478

Study 2 — method: DHFR PCA, deep sequencing; sample: yeast; together with: (+)-ABA 0.032 µM; baseline: wild-type fitted maximum; direction: higher = stronger binding
Target: ABI1, truncated, D143A, DHFR fusion (Arabidopsis thaliana)
Notes: methotrexate growth selection, single substitutions
Starting sequence: PYL1, truncated, DHFR fusion (Arabidopsis thaliana); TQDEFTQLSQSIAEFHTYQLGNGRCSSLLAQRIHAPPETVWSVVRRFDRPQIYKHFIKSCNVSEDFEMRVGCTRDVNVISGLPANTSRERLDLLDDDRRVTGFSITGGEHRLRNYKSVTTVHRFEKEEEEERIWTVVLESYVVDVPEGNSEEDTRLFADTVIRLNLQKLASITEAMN
Variant	relative binding score [%]
H34R	25.5
I57N	-4.58
D3S	19
Q51A	-0.52
C72Q	35.1
K54M	-7.76
E89M	0.961
R132C	36.1

Study 3 — method: RNA Bind-n-Seq; form: RNA; sample: in vitro; concentration: 365 nM; baseline: no-protein control; direction: higher = stronger binding
Target: RNA binding protein fox-1 homolog 2, RRM domain, GST-SBP tag (RBFOX2, Homo sapiens, UniProt O43251-10, residues 100-194)
Notes: natural RNA segment, single round, ends assumed
Shared flanks, not repeated: GGGAGUUCUACAGUCCGACGAUC … UGGAAUUCUCGGGUGCCAA
Construct (chain): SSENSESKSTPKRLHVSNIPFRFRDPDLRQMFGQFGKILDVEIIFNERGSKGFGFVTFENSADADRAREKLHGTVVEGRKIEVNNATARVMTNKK
Oligonucleotide	RBNS enrichment (R)
UACGAUUUAAUAAUCGGCCCCUCCCUUCUAUUUGUCGGUUUUAUGUUUCUAUCCUUCAAUAGCUGCACUGUUUUCUAAUGUGCUGUAGAGUUUUUGAAAUAAUUUAUGCA	7.6
AGUGUGUGUGUCUGUGUUUGUUUUAAAAGUCACUUAUUUCUUACAGUGAUUUCAAUUGCACCAUGACUUCUUCACUAAAACCACAAAGUCCUGCUUAAAACUAUGGAAAA	0.396
GCAGCCUAAUAUGAAGAUUGAUCCUUCAAUUUUUUUCCUGUUCAUUUUAGUGCUAAAAGGCUUUUAUAAAUUAUAAUAAGCCUCAGGAAGAAGCAAGCCUCUUACAUAUU	0.661
UUCCUUGUAAUGAGUAGGUUUGGAUUUAAGAGCCGAUUAGAGGCUACUUCCUGUAAACAAGUACAGGAAAAUGAAACUAGACGGGUGGGGGACACUAGAAUGAAAACCAG	0.899
UGAGGAAUCGGCGGAUUGUCUGAAUGACACAUAUACAGAGCCCCCACGGAUUUCUGCACACUCUGGGUCUGUGCUGGUGGAACAUUGCCAAUCAGUUCUUAAUGAGGCAC	1.41
GAGACAACAGUACAUAUAAUAGAGGUACAAUUCGUUGGAUUUUUGUUUAUGUAUUUAUUUCAUUCCAGUUUGAUUUAUUUUAAUUGUUGAUACUUAAGUUGUCGAACAGU	0.313
UUGCAACCUCUUUUCGUGAUGGGCAGCCUGCUGGUCAGCACUCCAGUAGCGAGAGACGGCACCCAGAAUCAGAUCCCAGCUUCGGCAUUUGAUCAGACCAAACAGUGCUG	1.56
GUUGCCACCAACCACCACCACAGGUGGCCUUAUGGCUCUUCCUGGAUGUUCGAUUCAUGUAAGUGACCUACCUGCUGAUGAUCCACAAAUAAUACUUUAGGGUGGCACUG	0.284
UUUUUCCUGUUCACAAGCUGAGCCAUAUGUACAUAAUCUAGAUUUUGUUUUCAUAGUUUUGCACUUUUAUAGCCUAUUUUUGAAGAUUAACACAUUUGCAAGAUGAUUGA	0.419

Further values, each from its own experiment
Molecule	target	test	test system	setting	how to read	quantity	value
PhoQ, residues 284 288 289 292 302 303 ASASEQ	PhoP, residues 12 14 15 18 19 VHSCL (Escherichia coli, UniProt P23836)	Sort-seq, item: YFP reporter	E. coli	PhoQ-PhoP variant library, together with: 10 µM Mg2+	baseline: high Mg2+ state, higher = stronger signaling	fold induction	1.31

Some of these lines once more (study 2):
Variant	relative binding score [%]
R132C	36.1
E89M	0.961
I57N	-4.58
